Published values of several laboratories.
Parts stem from different laboratories: compare values within a part only.

Study 1
Target: Sal-like protein 4, full length isoform B (SALL4, Homo sapiens, UniProt Q9UJQ4-2, residues 1-616)
Method: universal PBM
Form: double-stranded DNA, one strand shown
Matrix: in vitro
Tested at: not given
Setting: 8-mer, flanks averaged, mean of replicates
Reading: higher = stronger binding
`ACGCATAG` gave an E-score of -0.0442.
`CCGCTCGA` has an E-score of -0.3.
`GGCGGCAA` has an E-score of -0.257.
With `CACGATAC` the E-score was 0.0791.
`GCAACTGC` gave an E-score of -0.0741.
`ACCAAGTC` gave an E-score of -0.108.
`AGCCTAGC` gave an E-score of -0.239.
With `AAAGATTT` the E-score was 0.274.
With `AAGGAAAG` the E-score was 0.0753.
For `ACCACCAA`, the E-score was -0.163.
With `ATCAAGTA` the E-score was 0.0935.
`CGAGGTCC` gave an E-score of -0.318.
With `AACCTCGG` the E-score was -0.192.
The E-score of `CGCATTTA` is reported as 0.101.
For `AGACGGTA`, the E-score was 0.0171.
For `AAGCTGTG`, the E-score was -0.11.
For `CGTCCGTA`, the E-score was -0.116.
`AGTGGCAT` gave an E-score of -0.0024.
For `CTGGTGTC`, the E-score was -0.133.
The E-score of `AACTCTAC` is reported as -0.143.
The E-score of `AGCGTAGC` is reported as -0.114.

Study 2
Target: RNA binding protein fox-1 homolog 2, RRM domain, GST-SBP tag (RBFOX2, Homo sapiens, UniProt O43251-10, residues 100-194)
Method: RNA Bind-n-Seq
Form: RNA
Matrix: in vitro
Tested at: 365 nM
Setting: natural RNA segment, single round, ends assumed
Reference: no-protein control
Reading: higher = stronger binding
Shared flanks, not repeated: GGGAGUUCUACAGUCCGACGAUC … UGGAAUUCUCGGGUGCCAA
Residues (chain): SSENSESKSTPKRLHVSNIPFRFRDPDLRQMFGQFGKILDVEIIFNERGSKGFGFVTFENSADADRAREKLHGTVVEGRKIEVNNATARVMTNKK
For `AACUCCUCCCUUUUAUCUUCUAGCCACAGUUCUAAGACCCAAAGUGGGGGGUGGACACAGAAGUCCCUAGGAGGGAAGGAGCUGUUGGGGCAGGGGUGUAAAUUAUUUCC`, “RBNS enrichment (R)” read 0.504.
`UUUUUUAAUGUGGGUCUCCCUCAGGGUUGUUUAAAGUUGUUUGUUUUCCUCCCUUACAUAUAAAUAAAUAAUGGUAACCGGUUUCUAUCUUGUAGCACCAACUGCUGUAA` — result for “RBNS enrichment (R)”: 0.83.
`UGGGAGUGGGUCCGCGCUGCUCUGCAGCAGGGGCUGGGGAGUGGACAGCAUCAGGUGGGAAAGUGGAGUCCACCCUCAUGUUUCUGUAGGAUUCUCACCGUGGGGCUGGA` — result for “RBNS enrichment (R)”: 0.879.
`GAUGGAGACUGGUGGGGACGCCCCCGCCUCCCUGUCCCCCGUUUCACACACUGGACACCAUCACCUCUUUGGAACUGCCAGACCCUGGGGGUCCCCAGUGAGCAAAGGUC` — result for “RBNS enrichment (R)”: 0.31.
`ACCAGCCUGUGGCAAUCAGCAGGGAAAGACAGGUGCUCCUGUCAUAGGGGCUUGAGCUACCACAGCUACCACACAGCUUUCUGGAUCUUCUAUAUGGCAGUUCAUUCUUG`: “RBNS enrichment (R)” 0.248.
Under “RBNS enrichment (R)”, `UAUAAAAGGUUCUGUUUUUAAAGGUGGAUUUUCAUUCCUCUGGGGACAGUGGUCGCCAAGACAUCUACAUUGUAAGAGAACACAGUGGAAGAUCCUGUCCUGAUUCUCAA` is recorded as 0.366.
For `GUGUGUGUGUGGAGGGGGAUGCACAUUUACUGUAUAGCCUUUUUGCUGGCUCUCAAACUUGAUGCUCUUGCCUCAGCCUUCCAGUGCUGAAAUUUCAGGCUGCUGCAAAC`, “RBNS enrichment (R)” read 1.29.
For `UGCACUUAGCGGGGUACCCGGCUCCCCCAGCCCCCACACCCGUCCUGGGUCUCAGGGUGGUUCCAGCUUCUCCUUGGGCAGCCAGAAGUUGGAGUCCCAUCCCCCAAGGC`, “RBNS enrichment (R)” read 0.621.
For `GUUGGGAAAGCCUCGUGUUGAAAGCCGGGGGAGCUUAAAUGAUCCAGGUGGUAGCUAGGGACCGUCCAUCAGUGGUCCUUCCCUCCACCGCCACGCCAGCUCCUGGGUCG`, “RBNS enrichment (R)” read 0.292.
Under “RBNS enrichment (R)”, `GUUCCAUGUCACAAACAGGAAGGUUAGAAACACUAAGGUCUGUGAACAUCACUGCUGCAGCGAGGCAGCUCCUCUGUCUACUCGUUCAAGUGUCUUACUCUACUGGAUGC` is recorded as 0.233.
For `GGGGAAAGAAGAGAGGAAGGUGAGCUAUAGCUUAACUCCUCCAGAGUGAGGAGAGGCUGAGCAUUCUACUACAGGACAGGACCUCGCCCCAAGCAAGCCAGUGAGCAGCC`, “RBNS enrichment (R)” read 0.736.
For `UAGUUUUAGAAUAAUAUUUCUUCGGCAAACCCUGCUAACUGCGGUUCACCCUUGAAAACGUUAAUCUGAGGACUUUUUCCACCAACUCAUUAAUGAUGGUGGAAGCAAGU`, “RBNS enrichment (R)” read 0.273.

Study 3
Target: Ras GTPase-activating protein-binding protein 1, full length (G3BP1, Homo sapiens, UniProt Q13283)
Sequence of UniProt Q13283 (whole entry, looked up): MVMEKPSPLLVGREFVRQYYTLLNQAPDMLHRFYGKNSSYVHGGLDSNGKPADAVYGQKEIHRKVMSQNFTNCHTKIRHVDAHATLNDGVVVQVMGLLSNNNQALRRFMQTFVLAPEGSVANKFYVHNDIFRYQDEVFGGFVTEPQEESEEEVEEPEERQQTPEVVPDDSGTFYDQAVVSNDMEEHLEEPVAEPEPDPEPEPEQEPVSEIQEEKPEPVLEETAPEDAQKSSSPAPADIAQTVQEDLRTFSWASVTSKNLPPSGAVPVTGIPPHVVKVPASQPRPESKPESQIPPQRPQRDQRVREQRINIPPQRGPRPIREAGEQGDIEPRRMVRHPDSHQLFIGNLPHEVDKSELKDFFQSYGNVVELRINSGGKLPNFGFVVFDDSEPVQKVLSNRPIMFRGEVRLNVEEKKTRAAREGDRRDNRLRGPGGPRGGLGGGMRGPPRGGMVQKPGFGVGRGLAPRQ
Method: RNA Bind-n-Seq
Form: RNA
Matrix: in vitro
Tested at: 200 nM
Setting: whole 134-nt RNA, ends assumed
With: 150 mM KCl
Reference: input library
Reading: higher = stronger binding
Shared flanks, not repeated: GGGAGUUCUACAGUCCGACGAUC … UGGAAUUCUCGGGUGUCAAGG
`ACCAUGCAGGUGGGCAUCUUUGGGAAGUGGGGCAAGGGGGGGAUAGGGAGGGGGGUAACAUUUUGGGAACAGGUGGUCCCAGGUCGUUUC` gave a log2 enrichment of 1.25.
With `GCAGGAAGUAAAAACAAAUGGAAAUGCUUCGGAUAGUGGCAGGGGUGGGGGUUGCUAAGGAAAGGGUGGGAUGGGAGUGGGUAAUGAGUU` the log2 enrichment was 1.2.
For `AAGUCCUGUGCUACACAUCGUAUGUACCGAAUCGGGCCCCGGCCCCGGCCCCGGGGAAAGUAUUAUGUUACGCCGUUCGGAUCUGCACUU`, the log2 enrichment was -0.914.
With `CUGUGCUACACAUCGUAUGUACCGAAUCGGGAAAAAAAGGGAAAAAAAGGGGAAAAAAAGGGAAAGUAUUAUGUUACGCCGUUCGGAUCU` the log2 enrichment was -0.729.
With `UUGUUUGAAACAGCAACGCUUCGGUCAGGGUAUCUUUUACCAGACACUAAAGCAUAUGGAGAUAGAAUAGAAAGAAUGCUUCGCCUCAGU` the log2 enrichment was -1.07.
`CUGUGCUACACAUCGUAUGUACCGAAUCGGGGAAAAAAAGGAAAAAAAGGAAAAAAAGGGGAAAGUAUUAUGUUACGCCGUUCGGAUCUG` gave a log2 enrichment of -0.803.
`UGAAAAUUCUCGACUGGCUGCUGAGGUUUACAAAGACAUGCCGGAAACCAGCUUUACUCGAACCAUUUCUAAUCCUGAGGUGGUUAUGAA` has a log2 enrichment of -1.65.
`CACAGACAACACGCACCCACACAGACACAGAGGGAAGGGGUUGGGAUGGGGACAGGGUCCACAGCAGGGCGGGGUAGGACCCCAGCCCCU` gave a log2 enrichment of 1.67.
`CUCAAGUCCUGUGCUACACAUCGUAUGUACCGAAUCGGCCGGGCCGGCCGGGGAAAGUAUUAUGUUACGCCGUUCGGAUCUGCACUUCCA` gave a log2 enrichment of -0.383.
For `AAGUCCUGUGCUACACAUCGUAUGUACCGAAUCGGGAAAGGGUUUGGGAAAAAGGGAAAGUAUUAUGUUACGCCGUUCGGAUCUGCACUU`, the log2 enrichment was -0.223.
`UGGCCCUGGUGGCAUGCGGGGAGGAAGAGGUCGCCUCAUGGAUCGUGGUGGUCCCGGUGGAAUGUUCAGAGGUGGCCGUGGUGGAGACAG` gave a log2 enrichment of -0.0612.
With `GUCCUGUGCUACACAUCGUAUGUACCGAAUCGGGCCCCCCGGGCCCCCCGGCCCCCCGGAAAGUAUUAUGUUACGCCGUUCGGAUCUGCA` the log2 enrichment was -0.25.
With `GCAGGAAGCAAAAACAAAUGGAAAUGCUUCGGAUAGUGGCAGGGGUGGGGGUUGCUAAGGAAAGGGUGGGAUGGGAGUGGGUAAAGAGUU` the log2 enrichment was 0.952.
The log2 enrichment of `GCAGGAAGUAAAAACAAAUGGAAAUGCUUCGGAUAGUGGAAAGGGUGGGGGUUGCUAAGGAAAGGGUGGGAUGGGAGUGGGUAAAGAGUU` is reported as 0.86.

Study 4
Target: Interferon regulatory factor 5, full length, phosphomimetic (IRF5, Homo sapiens, UniProt Q13568-2, residues 1-514, S451D/S453D/S456D/S462D)
Method: protein-binding microarray
Form: double-stranded DNA, one strand shown
Matrix: in vitro
Tested at: 940 nM top
Setting: 60-bp whole probe
With: salmon DNA 0.4 mg/ml
Reference: random background probes
Reading: higher = stronger binding
Shared flanks, not repeated: GCCTAGCAC … GTCTTGATTCGCTTGACGCTGCTG
For `GACGGTATCGGACTGGGGAGGTGCTAG`, “fitted relative affinity” read 2.63 z-score.
`GACAGTTTCCTTATCCTGACGTGCTAG`: “fitted relative affinity” 2.7 z-score.
`TTAGGTTTGGGACTGGGTTAGTGCTAG` — result for “fitted relative affinity”: -0.0886 z-score.
Under “fitted relative affinity”, `TCACTTCTCGAGTGCCGGACTGTGCTA` is recorded as 0.38 z-score.
`GACGGTCTCGTTTTCGGGACGTGCTAG` — result for “fitted relative affinity”: 2.09 z-score.
`TTAGGTCTCGGACTGGGTTCGTGCTAG`: “fitted relative affinity” 0.987 z-score.
`TCAGGACTGCTTTTCCTTTAGTGCTAG` — result for “fitted relative affinity”: 0.123 z-score.
Under “fitted relative affinity”, `TTAGATTACAGTTTCGATTAGTGCTAG` is recorded as 7.23 z-score.
For `GACGGTTTCGGGTATCAGGACGTGCTA`, “fitted relative affinity” read 9.38 z-score.
`AGAGCCATCAATATCTGCAAGTGCTAG`: “fitted relative affinity” -0.306 z-score.
`TTAGGTCTCCTACTGATTTAGTGCTAG` — result for “fitted relative affinity”: -0.117 z-score.
`GACGATTTCAGTCTCTAGACGTGCTAG` — result for “fitted relative affinity”: 0.557 z-score.
Under “fitted relative affinity”, `TCACTTTTTTTAATTGAACTGTGCTAG` is recorded as 0.767 z-score.
Under “fitted relative affinity”, `ATGTTTGTCACTCTCAGAATGTGCTAG` is recorded as 1.04 z-score.
`TATATTCTATTCCTTTAACAGTGCTAG` — result for “fitted relative affinity”: 1.69 z-score.
`TTAGGTATCGGGTATTGGTTAGTGCTA`: “fitted relative affinity” 5.96 z-score.
For `TTAGATTTCAGTTCAGATTAGTGCTAG`, “fitted relative affinity” read 0.816 z-score.
`TTAGGTCTCCTTCCCCTTTAGTGCTAG` — result for “fitted relative affinity”: 0.614 z-score.
For `TTAGAACTGGGGGCTGGATTAGTGCTA`, “fitted relative affinity” read 1.48 z-score.

Repeated from above (study 1):
For `ACCACCAA`, the E-score was -0.163.
With `ATCAAGTA` the E-score was 0.0935.
`CGAGGTCC` gave an E-score of -0.318.
With `AACCTCGG` the E-score was -0.192.
The E-score of `CGCATTTA` is reported as 0.101.
For `AGACGGTA`, the E-score was 0.0171.
For `AAGCTGTG`, the E-score was -0.11.
For `CGTCCGTA`, the E-score was -0.116.
